Earlier results, collected from citations in different studies.
Protocols differ between the studies behind these lines. ± marks the error that the study gave.
UniProt Q9HBY8, sequence (whole entry, looked up): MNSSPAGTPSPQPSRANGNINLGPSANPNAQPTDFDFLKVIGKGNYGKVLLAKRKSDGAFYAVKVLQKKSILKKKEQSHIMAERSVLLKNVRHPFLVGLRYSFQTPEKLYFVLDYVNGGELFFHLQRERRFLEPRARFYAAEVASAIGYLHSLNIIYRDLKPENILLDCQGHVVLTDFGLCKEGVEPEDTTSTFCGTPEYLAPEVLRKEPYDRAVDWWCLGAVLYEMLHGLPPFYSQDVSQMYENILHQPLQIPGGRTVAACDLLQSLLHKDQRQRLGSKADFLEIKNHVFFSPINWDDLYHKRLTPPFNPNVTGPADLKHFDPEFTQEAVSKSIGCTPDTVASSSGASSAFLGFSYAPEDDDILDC

Nc1nc(N)c2[nH]c(-c3ccccc3)nc2n1
IC50 (CSNK1G1; kinase activity, inhibitor): 924 nM

COCCNc1nc2ccc(C#CC3(O)CCCCC3)cc2n1-c1ccnc(N)n1
IC50 (PAK6; inhibitor): 36 nM

CC(C)NCCCC[C@H](NC(=O)[C@H]1CCC(=O)N[C@@H](Cc2ccccc2)C(=O)N[C@@H](Cc2ccc(O)cc2)C(=O)N[C@@H](CCCCNC(C)C)C(=O)N[C@H](CCCNC(=N)N)C(=O)N[C@@H](Cc2ccc3ccccc3c2)C(=O)NCC(=O)N1)C(N)=O
IC50 (CXCR4 (human)): 27.8 ± 7.4 nM

COc1ccc(-c2ccc3ncc4c(c3c2)n(-c2ccc(N3CCNCC3)c(C(F)(F)F)c2)c(=O)n4C)cn1
IC50 (PI3K beta): 63 nM

Cc1[nH]c(C)c(-c2ccc(Oc3ccc(Cl)cc3)cc2)c(=O)c1Br
IC50 (Plasmodium falciparum; whole cell extended time; 3D7; 72 h): 590 nM

c1cc(OCCN2CCCCC2)cc(-c2n[nH]c3ccc(-c4nc[nH]n4)cc23)c1
IC50 (CSNK1G1; kinase activity, inhibitor): 282 nM

Cc1[nH]c(/C=C2\C(=O)Nc3ccc(C(=O)N[C@H](C)c4ccc(F)cc4)cc32)c(C)c1NC(=O)CCl
IC50 (GRK5; kinase activity, inhibitor): 8.6 nM

C#Cc1cccc(Nc2ncnc3cc4c(cc23)OCCOCCOCCO4)c1
IC50 (EGFR): 5 nM

CNC(C)C1CCC(N)C(OC2C(N)CC(N)C(OC3OCC(C)(O)C(NC)C3O)C2O)O1 (stereo not drawn)
MIC (Klebsiella pneumoniae; clinical isolate RKI-No_600/16): ≤ 0.5 µg/mL

O=c1c(O)c(-c2ccc(O)c(O)c2)oc2cc(O)cc(O)c12
IC50 (dengue virus 2 NS2B-NS3 protease; enzyme activity, inhibitor; pH 9.0): 35200 ± 2300 nM

Cn1ncc2c(N)ncnc21
IC50 (CSNK1G1; kinase activity, inhibitor): 716 nM

CCn1c(-c2nonc2N)nc2c(C#CC(C)(C)O)ncc(OC[C@H]3CCCNC3)c21
IC50 (AKT; enzyme activity): 2 nM

CC(C)C[C@H](NP(=O)(O)O[C@@H]1O[C@@H](C)[C@H](O)[C@@H](O)[C@H]1O)C(=O)N[C@@H](Cc1c[nH]c2ccccc12)C(=O)O
IC50 (neprilysin; inhibitor): 34 nM

CNS(=O)(=O)Nc1nccc(Cc2c(C)c3ccc(Oc4ncccn4)cc3oc2=O)c1F
IC50 (BRAF; kinase activity, inhibitor): 19 nM

CC(C)=CCC/C(C)=C/CNCCNC1C2CC3CC(C2)CC1C3 (stereo not drawn)
IC50 (Mycobacterium tuberculosis cis-decaprenyl diphosphate synthase; enzyme activity, inhibitor): ≥ 50000 nM

Nn1cnc2scc(-c3ccc(Cc4ccccc4)cc3)c2c1=O
IC50 (β-arrestin 1): 19100 nM

Nc1nc2cc(-c3ccc4ncc(C(=O)N5CCOCC5)n4c3)ccc2o1
IC50 (PI3Kα; enzyme activity): 21 nM

COc1cc(N2CCC3(CCN(C)CC3)CC2)ccc1Nc1ncc(Cl)c(Nc2ccccc2P(C)(C)=O)n1
IC50 (ALK G1202R): 96 nM

COc1cccc(-c2cc(F)ccc2[C@H]2Cc3nc(N)nc(C)c3C(=O)N2)n1
IC50 (Hsp90α; inhibitor): 0.6 nM

CCN(CC)CCCCNc1ncc2cc(-c3cc(OC)cc(OC)c3)c(NC(=O)NC(C)(C)C)nc2n1
IC50 (EphA2; inhibitor): > 1000 nM

CC1(C)S[C@@H]2[C@H](NC(=O)[C@H](N)c3ccccc3)C(=O)N2[C@H]1C(=O)O
MIC (Escherichia coli; clinical isolate RKI-No_75/15): > 16 µg/mL

CCC(=O)NS(=O)(=O)c1ccc(-c2c(-c3ccccc3)noc2C)cc1
IC50 (NR4A1 (Nur77); inverse agonist, cellular): 23700 ± 100 nM

N=C(NCCCSC[C@H]1O[C@@H](n2cnc3c(N)ncnc32)[C@H](O)[C@@H]1O)Nc1ccccc1Br
IC50 (PRMT5): 18.2 nM

Cc1[nH]c(C)c(-c2ccc(CCc3cccc(C(F)(F)F)c3)nc2)c(=O)c1Cl
IC50 (Plasmodium falciparum; whole cell extended time; 3D7; 72 h): 100 nM

Nc1cc(C(F)(F)F)c(-c2nc(N3CCOCC3)nc(N3CCOCC3)n2)cn1
remaining activity (SGK2 (Homo sapiens, UniProt Q9HBY8); enzyme activity; 10 µM; relative to: untreated): 96%

CCOC(=O)C1=C(C)NC(C)=C(C(=O)OC)C1c1cccc(Cl)c1Cl (stereo not drawn)
IC50 (L-type calcium channel): 0.15 nM

CC[C@@H]1C(=O)N(C)c2cnc(Nc3ccc(C(=O)N[C@H]4CC[C@H](N5CCN(CC6CC6)CC5)CC4)cc3OC)nc2N1C(C)C
IC50 (PLK1; inhibitor): 0.87 nM

CN(CCN)Cc1csc(-c2ccc(C(=N)N)nc2)n1
IC50 (PRMT8): 5710 nM

CN1CCN(c2ccc3nc(-c4c(N)c5c(F)cccc5[nH]c4=O)[nH]c3c2)CC1
IC50 (Raf; inhibitor): > 25000 nM

COc1ccc(-c2noc(CC(=O)O)c2-c2ccc(OC)cc2)cc1
IC50 (NR4A1 (Nur77); inverse agonist, cellular): 30000 ± 1000 nM

CNCCN(C)Cc1c[nH]nc1C1CCC2(CC1)CC(C)(C)CO2 (stereo not drawn)
IC50 (PRMT6): 5.7 nM

O=C(O)C(Cc1ccc2c(c1)oc1ccccc12)NCP(=O)(O)O (stereo not drawn)
IC50 (ECE1; enzyme activity, inhibitor): 22 nM

CNC(=O)c1c(C)oc2cc(Oc3ncnc4cc(OC)c(OC)cc34)ccc12
IC50 (P-glycoprotein; transport, inhibitor; in vitro): 4600 nM
